Measurements from different studies.
A part holds a random share of what one study measured.

Sample 1 — method: protein-binding microarray; molecule type: double-stranded DNA, one strand shown; medium: in vitro; tested at: 2540 nM top; setting: 60-bp whole probe; together with: salmon DNA 0.4 mg/ml; relative to: random background probes; direction: higher = stronger binding; shared flanks, not repeated: GCCTAGCAC … GTCTTGATTCGCTTGACGCTGCTG
Target: Interferon regulatory factor 3, full length, phosphomimetic (IRF3, Homo sapiens, UniProt Q14653, residues 1-427, S386D/S396D/S398D/S402D/T404D/S405D)
Construct (chain): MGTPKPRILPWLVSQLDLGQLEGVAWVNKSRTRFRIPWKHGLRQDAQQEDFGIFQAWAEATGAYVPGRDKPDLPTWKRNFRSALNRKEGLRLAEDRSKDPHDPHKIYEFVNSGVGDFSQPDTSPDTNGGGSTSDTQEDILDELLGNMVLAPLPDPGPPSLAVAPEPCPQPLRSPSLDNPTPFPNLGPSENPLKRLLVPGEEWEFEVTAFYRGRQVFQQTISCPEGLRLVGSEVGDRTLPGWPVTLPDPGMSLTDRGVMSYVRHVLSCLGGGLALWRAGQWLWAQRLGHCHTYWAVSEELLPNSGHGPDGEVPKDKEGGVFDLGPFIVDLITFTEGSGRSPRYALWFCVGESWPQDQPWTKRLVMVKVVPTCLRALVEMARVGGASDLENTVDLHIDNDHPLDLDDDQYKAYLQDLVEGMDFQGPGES
Oligonucleotide | fitted relative affinity [z-score]
TTAGATCTCAGTCTGGATTAGTGCTAG | 0.17
GACGGACTGGGGACTGGGGATGTGCTA | -0.908
GACGGTATCTTTCTCCTGACGTGCTAG | 2.17
TTAGATTTCAGTTCAGATTAGTGCTAG | 2.2
TCAACTTTGCTCTGTGCAACTGTGCTA | -0.24
TTGTGTTGCTGTTTGAGGAAGTGCTAG | 2.66
TCACTCCTCCTTCTCTAACTGTGCTAG | 1.89
GAGGGTATCCTACTGCTGACGTGCTAG | 1.2
TCATTTTCATTTTCTGAAACTGTGCTA | 5
GACGCTTTCGGGTTTCGAGACGTGCTA | 2.95
TCATCCTTCTGACATCAAACTGTGCTA | 1.19
TTAGGTACCCTTATCCTTTAGTGCTAG | 2.56
GACGGACTGTTTATCCTGACGTGCTAG | 0.623
CACGGTATCCTTTTCCTGACGTGCTAG | 7.31
TGGAGCCTAAGGTTTAGGCTCGTGCTA | -0.595
TTTCTTCTAGACTTCTCCATGTGCTAG | 1.94
GACGGTTCCGGTTTCCGGACGTGCTAG | 6.46
TCACCTAACATGCTTCGAACTGTGCTA | 0.805
TTAGGTCTCCTACTGCCTTAGTGCTAG | 0.897
TCAATGATTGGTTGAACACTGTGCTAG | -0.653
AATGCCCTCGGTTTACAGGGGTGCTAG | -0.248
GACGAACTGAGACTGGAGCCGTGCTAG | -0.245

Sample 2 — method: RNA Bind-n-Seq; molecule type: RNA; medium: in vitro; tested at: not given; relative to: input RNA pool; direction: higher = stronger binding
Target: RING finger protein unkempt homolog, zinc fingers 1-6, GST-SBP tag (UNK, Homo sapiens, UniProt Q9C0B0, residues 30-357)
Chain of UniProt Q9C0B0 (30-357, looked up): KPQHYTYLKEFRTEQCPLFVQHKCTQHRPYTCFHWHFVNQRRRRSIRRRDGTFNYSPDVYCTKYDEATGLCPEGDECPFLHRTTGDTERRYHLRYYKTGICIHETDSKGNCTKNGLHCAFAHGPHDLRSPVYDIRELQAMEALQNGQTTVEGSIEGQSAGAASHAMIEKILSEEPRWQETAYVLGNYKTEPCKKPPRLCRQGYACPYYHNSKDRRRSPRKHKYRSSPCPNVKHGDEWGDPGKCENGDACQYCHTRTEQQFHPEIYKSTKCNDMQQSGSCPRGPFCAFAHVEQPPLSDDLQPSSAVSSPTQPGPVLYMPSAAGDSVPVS
Setting: RNA with constant flanks, human and mouse sites, ends assumed
Shared flanks, not repeated: GGGAGUUCUACAGUCCGACGAUC … CAACAGAGGAUUGAGCAUCA
Oligonucleotide | bound/input enrichment
CAAGAUUGGGAAUCCGAAAGAGAGUUAUGUUUGGAAAACCUCCGCCAGGAAUUGUCGUUGAAGCAUCAGUCGGAGAUGGAGGGUUUGCAGAGCCAGUUUCAGAAGGAAUUGUCAGAACAG | 0.216 ratio
UUUACCACUAGAGACUUCUCUAUCCGGUCCCUCGCUGACCGCCUGGGGGACCUGAAUUACCUCAUAUAUGUGUUUCCUGAUCGGCCAAAGGAUGAAGUAUAUUCUAAGUACUACACACCG | 0.17 ratio
GGGCCGGAACCGGAAUCAUGGUUGCUUGGUUUGACUUCAAGCCAUUUAUGAGACAUUAAACCUGAAAAUGGAAAACAGAGUAAGAUCCUCCUUAGAAGCUCUGAGCUGUUGCUAAUGGCA | 0.154 ratio
GCGCUGGGGGUAAGGGUUACAAAUAAUGAAUUAAAUCAUAUUGGUCAUUAGGACAGAUGCUAGCUGGCUUUUCUAUUUUAACUGACAAGUCCAGAGCAUAUACAAGUGCAUGAAGUGAGA | 1.29 ratio
CACAUCACUGAAAAUGGGCCAACUGAAGUGGACUACAGUCCUUCUGACAUGCAGGACUCCAGUUUAUCACAUAAGAUACCACCUAUGGAGGAGCCGUCCUACACCCAAGAUAAUGAUCUU | 0.167 ratio
AGUCAGAAUGCCACUGAUUUUGAGAAAACGGGAUUUUCUGAAGAAAUUCUAGAUGACGUGAUUUUAUUGAUUAAAUCAGAUAGUGUCCAUCUGUACUGUAAUCCCGUCAACUACCGCUAU | 0.209 ratio
GUGAUUAUUGAAGAAUCUAAGCCAGAAAAAGUCAAGGUGAUGUUAGAGAAGUUUGUUGAAGAAUGCAAGUUUCCCCCAGUGCCAGAUGCUGUUUGUUGCUAUCAGAAGUGCCGUGGAUAU | 0.37 ratio
GAAAACAUGGAAAGGAUGAGCGACUCGGCAGAUAAGCCGAUUGACAACGACGCGGAGGGCGUCUGGAGUCCUGAUAUUGAGCAGAGUUUCCAGGAGGCCCUGGCUAUCUAUCCGCCGUGU | 0.168 ratio
UGGGUGACAGAGCGAGACUUAUAGAUAGAUAGAUAGAUAGAUGGAUAGAUAGAUAGAUAGAUAGAUAGAUAGAUAAACGGAAUUGGAGCCAUUUUGCUUUAAGUGAAUGGCAGUCCCUUG | 237 ratio
GAACAGGAUGAUGAAGAUGAUUUAUCUGCUGGCUUGGCACUGAUUGACCUGGGUCAGAGUAUAGAUAUGAAACUUUUUCCAAAAGGAACUAUAUUCACAGCAAAGUGUGAAACAUCUGGU | 0.245 ratio
UAGGAGUGCAGCCAGAUGGUUUAGACAAAUAACCUCUGCCUGCCAGCCGUUGGGGUGAUGAUUAGAAUGUUAUUGAAGAUAGUGGUUAUGGUUGGGGCUUAUAAUGCCGACUGCAUUUGA | 4.76 ratio

Sample 3 — method: RNA Bind-n-Seq; molecule type: RNA; medium: in vitro; tested at: 200 nM; setting: whole 134-nt RNA, ends assumed; together with: 150 mM LiCl; relative to: input library; direction: higher = stronger binding; each molecule: 7-deaza-guanosine replaces G
Target: Fragile X messenger ribonucleoprotein 1, C-terminal low-complexity region (Fmr1, Mus musculus, UniProt P35922)
Shared flanks, not repeated: GGGAGUUCUACAGUCCGACGAUC … UGGAAUUCUCGGGUGUCAAGG
Oligonucleotide | log2 enrichment
UGGGAGGUGGAUUUUGUUUAUUUUUUUAGCUCAUUUCCAGGGGUGGGAAUUGUUUUUUAAUAUGUGUCAUGAAUAAAGUUGUUUUUGAAA | -0.264
UCCUGUGCUACACAUCGUAUGUACCGAAUCGGGAAAAAAGGGAAAAAAGGGAAAAAAGGAAAGUAUUAUGUUACGCCGUUCGGAUCUGCA | -0.0413
GUCCUGUGCUACACAUCGUAUGUACCGAAUCGGGCCCCCCGGCCCCCCGGGCCCCCCGGAAAGUAUUAUGUUACGCCGUUCGGAUCUGCA | 0.656
ACCAUGCAGGUGGGCAUCUUUGGGAAGUGGGGCAAGGGGAGGAUAGGGAGGGGGGUAACACUUUGGGAACAGGUGGUCCCAGGUCGUUUC | 1.11
GUCCUGUGCUACACAUCGUAUGUACCGAAUCGGGUGGGUUUUUUUGGGUUUUUUUGGGAAAGUAUUAUGUUACGCCGUUCGGAUCUGCAC | -0.077
CACAGACAACACGCACCCACACAGACACAGAGGGAAGGGGUUGGGAUGGGGACAGGGUGCACAGCAGGGCGGGGUAGGCCCCCAGCCCCU | 1.06
UCCUGUGCUACACAUCGUAUGUACCGAAUCGGGGUUUUUUUGGGGAAAGGGGUUUGGGGAAAGUAUUAUGUUACGCCGUUCGGAUCUGCA | -0.957
UCCUGUGCUACACAUCGUAUGUACCGAAUCGGGGUUUUUGGGGUUUUUUUGGGGAGGGGAAAGUAUUAUGUUACGCCGUUCGGAUCUGCA | 0.191
CCUGUGCUACACAUCGUAUGUACCGAAUCGGUUUUUUUGGUUUUUUUGGGGUUUUUUUGGGAAAGUAUUAUGUUACGCCGUUCGGAUCUG | -1.03
GUCCUGUGCUACACAUCGUAUGUACCGAAUCAAACCCCCCCAAACCCCCAAACCCAAAAAAGUAUUAUGUUACGCCGUUCGGAUCUGCAC | 0.834
CCUGUGCUACACAUCGUAUGUACCGAAUCGGUUUUUUUGGUUUUUUUGGGUUUUUUUGGGGAAAGUAUUAUGUUACGCCGUUCGGAUCUG | -1.33

Sample 4 — method: protein binding microarray; molecule type: double-stranded DNA, one strand shown; medium: in vitro; tested at: not given; relative to: not given; direction: higher = stronger binding
Target: Histone acetyltransferase KAT6A, winged helix 1, GST fusion (KAT6A, Homo sapiens, UniProt Q92794, residues 1-85)
Setting: 8-mer, flanks averaged, mean of 2 arrays, mostly near background
Construct (chain): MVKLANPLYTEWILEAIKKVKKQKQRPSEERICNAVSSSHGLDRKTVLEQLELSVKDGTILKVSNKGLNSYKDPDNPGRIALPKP
Oligonucleotide | E-score
ATCCGGCC | 0.24
ACACTGCA | -0.16
CGGACCGC | 0.338
ACAAACAC | -0.0495
CATACAGA | -0.209
GGGTAAAA | -0.0721
CAGAGCTG | -0.125
GGTGCTCA | -0.0778
CGTGTGCA | -0.0469
CAGGTCGG | 0.111
ATATGATC | -0.00448
ATGATTAC | 0.0586
ATAATTGA | -0.016
GCAGGCAC | -0.0146
AATGAATA | -0.0841
CTCTTCAG | -0.105
GAGGCCAA | -0.319
ACTGGCAC | -0.211
GATGTTTA | -0.0696
CCTTGACA | -0.12

Sample 5 — method: aptamer microarray, sandwich; molecule type: DNA with 2'F-ANA; medium: in vitro; tested at: 200 nM; together with: Cy3 exosite-II aptamer, 400 nM; direction: higher = stronger binding; oligonucleotide: GGTTGGTGTGGTTGG
Target: Prothrombin, mature alpha-thrombin (F2, Homo sapiens, UniProt P00734)
Setting: whole 15-mer aptamer, many near background
Modification | mean fluorescence intensity [a.u.]
2'F-ANA at 3 4 5 9 10 12 | 63.7
2'F-ANA at 1 2 3 4 5 9 10 12 15 | 48
2'F-ANA at 1 4 7 8 11 12 13 14 15 | 63.7
2'F-ANA at 1 2 3 4 5 8 9 12 13 15 | 76.7
2'F-ANA at 1 2 4 11 12 13 14 | 53.2
2'F-ANA at 1 2 3 6 9 10 13 14 | 53.8
2'F-ANA at 1 2 3 7 8 | 343
2'F-ANA at 3 10 13 | 528
2'F-ANA at 1 2 5 6 8 12 | 118
2'F-ANA at 1 2 3 5 11 12 13 14 15 | 49
2'F-ANA at 2 3 7 11 15 | 850
2'F-ANA at 1 3 4 5 7 8 9 12 13 15 | 82.3
2'F-ANA at 1 5 6 7 8 9 12 14 | 50.2
2'F-ANA at 2 4 6 8 9 10 11 14 15 | 57.1
2'F-ANA at 1 2 4 6 7 8 10 13 14 15 | 47.8
2'F-ANA at 2 4 5 6 9 12 14 15 | 49.4
2'F-ANA at 1 8 9 12 15 | 404
2'F-ANA at 1 3 7 8 9 10 11 12 13 15 | 127
2'F-ANA at 2 3 5 6 7 9 10 11 14 15 | 51.5
2'F-ANA at 3 5 6 8 11 12 14 | 60.1
2'F-ANA at 1 2 3 4 5 6 7 10 11 13 | 52.7

A few entries again (sample 1):
Oligonucleotide | fitted relative affinity [z-score]
TTAGGTACCCTTATCCTTTAGTGCTAG | 2.56
GACGGACTGTTTATCCTGACGTGCTAG | 0.623
CACGGTATCCTTTTCCTGACGTGCTAG | 7.31
TGGAGCCTAAGGTTTAGGCTCGTGCTA | -0.595
TTTCTTCTAGACTTCTCCATGTGCTAG | 1.94
GACGGTTCCGGTTTCCGGACGTGCTAG | 6.46
TCACCTAACATGCTTCGAACTGTGCTA | 0.805
TTAGGTCTCCTACTGCCTTAGTGCTAG | 0.897
